Results collected from several papers.
Protocols differ between the studies behind these lines. pIC50: −log10 of the molar value.
Cell line: A-375

Structure (SMILES)	read-out	method	time	added	relative to	measurement	value
Cc1ccc2[c](c1)[Au-]([Cl])([Cl])[n+]1ccccc1-2	cell growth or viability	resazurin	72 h			pIC50	5.30
CNS(=O)(=O)Nc1nccc(Cc2c(C)c3ccc(Oc4ncccc4F)cc3oc2=O)c1F	cell viability		7 days			pIC50	8.64
CC(C)c1ccc(N(C)c2ccc3c(c2)OCC[C@H]3CNc2cnccc2C(=O)O)cc1	cell growth or viability	ATP luminescence	7 days			pIC50	7.97
[Cl][Au-]1([Cl])[c]2ccccc2Cc2cccc[n+]21	cell growth or viability	resazurin	72 h			pIC50	5.15
CC(C)(C)c1cnc(CSc2cnc(NC(=O)C3CCN(C(=O)CCCCCCN4Cc5cc6c(cc5C4)C(=O)N(C4CCC(=O)NC4=O)C6=O)CC3)s2)o1 (stereo not drawn)	cell growth or viability	MTT				pIC50	6.63
CCOc1cncc(-c2ccc(NC(=O)C3(c4ccnc(NS(=O)(=O)C5CC5)n4)CCOCC3)nc2)n1	cell growth or viability	ATP luminescence	72 h			pIC50	7.03
CC(C)(C)c1cc(-c2ccc3cc4ccccc4nc3n2)nc(-c2ccc3cc4ccccc4nc3n2)c1.[Cl-].[Cl-].[Ru+2].c1ccc2cc3nc4c5cccnc5c5ncccc5c4nc3cc2c1		resazurin		light 733 nm, 100 J/cm2	dark EC50 over light EC50	phototoxicity index	1
CCN(C(=O)c1cc(F)ccc1Oc1nncnc1N1CCC2(C1)CN([C@H](CCCN(C)CCOC)C(C)C)C2)C(C)C	cell growth or viability		72 h			GI50	> 10 µM
[Cl-].[Cl-].[Ru+2].c1cc(-c2ccc3cccnc3n2)nc(-c2ccc3cccnc3n2)c1.c1ccc2cc3nc4c5cccnc5c5ncccc5c4nc3cc2c1		resazurin		light 523 nm, 100 J/cm2	dark EC50 over light EC50	phototoxicity index	5
NC(=O)c1ccc(-c2ccccc2Cl)c2c3c([nH]c12)CC[C@H](N)C3	cell growth or viability					pIC50	7.60
CC(C)(C)c1cc(-c2ccc3cccnc3n2)nc(-c2ccc3cccnc3n2)c1.[Cl-].[Cl-].[Ru+2].c1ccc2cc3nc4c5cccnc5c5ncccc5c4nc3cc2c1		resazurin		light 733 nm, 100 J/cm2	dark EC50 over light EC50	phototoxicity index	3
CC(C)=CC1OC(C)(C)C2C=C3C(=O)C(Cl)=CC(O)C3C3C(O)C4OC4C(=O)C132 (stereo not drawn)	cell growth or viability	MTS				pIC50	6.06

Some of these lines once more:
Structure (SMILES)	read-out	method	time	added	relative to	measurement	value
CC(C)=CC1OC(C)(C)C2C=C3C(=O)C(Cl)=CC(O)C3C3C(O)C4OC4C(=O)C132 (stereo not drawn)	cell growth or viability	MTS				pIC50	6.06
